Published values collected from several papers.
Compare with care: the assays were run in different laboratories. Numbers after ± are the reported error.
Sequence of UniProt P10275 (whole entry, looked up): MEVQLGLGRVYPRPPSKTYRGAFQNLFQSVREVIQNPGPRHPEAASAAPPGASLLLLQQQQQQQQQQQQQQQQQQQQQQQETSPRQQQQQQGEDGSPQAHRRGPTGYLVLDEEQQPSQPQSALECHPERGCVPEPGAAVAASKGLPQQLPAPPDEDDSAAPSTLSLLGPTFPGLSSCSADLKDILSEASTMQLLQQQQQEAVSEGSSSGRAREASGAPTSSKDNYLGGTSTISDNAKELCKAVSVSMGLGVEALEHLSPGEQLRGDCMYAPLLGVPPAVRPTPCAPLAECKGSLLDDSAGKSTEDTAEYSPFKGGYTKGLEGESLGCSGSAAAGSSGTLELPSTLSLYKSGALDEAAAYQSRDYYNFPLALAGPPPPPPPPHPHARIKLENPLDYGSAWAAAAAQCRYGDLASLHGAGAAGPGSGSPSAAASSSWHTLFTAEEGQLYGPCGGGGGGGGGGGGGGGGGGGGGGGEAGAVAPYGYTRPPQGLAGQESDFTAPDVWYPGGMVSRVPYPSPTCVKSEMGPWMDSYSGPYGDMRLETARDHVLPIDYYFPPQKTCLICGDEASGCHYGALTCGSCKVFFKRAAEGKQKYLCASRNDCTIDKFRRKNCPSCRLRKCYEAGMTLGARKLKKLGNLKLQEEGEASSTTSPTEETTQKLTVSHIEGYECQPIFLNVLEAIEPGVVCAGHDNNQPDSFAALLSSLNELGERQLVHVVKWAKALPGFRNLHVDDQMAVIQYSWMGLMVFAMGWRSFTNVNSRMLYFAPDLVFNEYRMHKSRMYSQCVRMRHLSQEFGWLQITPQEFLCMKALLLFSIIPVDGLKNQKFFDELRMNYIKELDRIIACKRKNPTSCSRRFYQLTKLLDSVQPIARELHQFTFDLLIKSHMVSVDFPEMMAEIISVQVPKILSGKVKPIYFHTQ
Sequence of UniProt Q9Y566 (whole entry, looked up): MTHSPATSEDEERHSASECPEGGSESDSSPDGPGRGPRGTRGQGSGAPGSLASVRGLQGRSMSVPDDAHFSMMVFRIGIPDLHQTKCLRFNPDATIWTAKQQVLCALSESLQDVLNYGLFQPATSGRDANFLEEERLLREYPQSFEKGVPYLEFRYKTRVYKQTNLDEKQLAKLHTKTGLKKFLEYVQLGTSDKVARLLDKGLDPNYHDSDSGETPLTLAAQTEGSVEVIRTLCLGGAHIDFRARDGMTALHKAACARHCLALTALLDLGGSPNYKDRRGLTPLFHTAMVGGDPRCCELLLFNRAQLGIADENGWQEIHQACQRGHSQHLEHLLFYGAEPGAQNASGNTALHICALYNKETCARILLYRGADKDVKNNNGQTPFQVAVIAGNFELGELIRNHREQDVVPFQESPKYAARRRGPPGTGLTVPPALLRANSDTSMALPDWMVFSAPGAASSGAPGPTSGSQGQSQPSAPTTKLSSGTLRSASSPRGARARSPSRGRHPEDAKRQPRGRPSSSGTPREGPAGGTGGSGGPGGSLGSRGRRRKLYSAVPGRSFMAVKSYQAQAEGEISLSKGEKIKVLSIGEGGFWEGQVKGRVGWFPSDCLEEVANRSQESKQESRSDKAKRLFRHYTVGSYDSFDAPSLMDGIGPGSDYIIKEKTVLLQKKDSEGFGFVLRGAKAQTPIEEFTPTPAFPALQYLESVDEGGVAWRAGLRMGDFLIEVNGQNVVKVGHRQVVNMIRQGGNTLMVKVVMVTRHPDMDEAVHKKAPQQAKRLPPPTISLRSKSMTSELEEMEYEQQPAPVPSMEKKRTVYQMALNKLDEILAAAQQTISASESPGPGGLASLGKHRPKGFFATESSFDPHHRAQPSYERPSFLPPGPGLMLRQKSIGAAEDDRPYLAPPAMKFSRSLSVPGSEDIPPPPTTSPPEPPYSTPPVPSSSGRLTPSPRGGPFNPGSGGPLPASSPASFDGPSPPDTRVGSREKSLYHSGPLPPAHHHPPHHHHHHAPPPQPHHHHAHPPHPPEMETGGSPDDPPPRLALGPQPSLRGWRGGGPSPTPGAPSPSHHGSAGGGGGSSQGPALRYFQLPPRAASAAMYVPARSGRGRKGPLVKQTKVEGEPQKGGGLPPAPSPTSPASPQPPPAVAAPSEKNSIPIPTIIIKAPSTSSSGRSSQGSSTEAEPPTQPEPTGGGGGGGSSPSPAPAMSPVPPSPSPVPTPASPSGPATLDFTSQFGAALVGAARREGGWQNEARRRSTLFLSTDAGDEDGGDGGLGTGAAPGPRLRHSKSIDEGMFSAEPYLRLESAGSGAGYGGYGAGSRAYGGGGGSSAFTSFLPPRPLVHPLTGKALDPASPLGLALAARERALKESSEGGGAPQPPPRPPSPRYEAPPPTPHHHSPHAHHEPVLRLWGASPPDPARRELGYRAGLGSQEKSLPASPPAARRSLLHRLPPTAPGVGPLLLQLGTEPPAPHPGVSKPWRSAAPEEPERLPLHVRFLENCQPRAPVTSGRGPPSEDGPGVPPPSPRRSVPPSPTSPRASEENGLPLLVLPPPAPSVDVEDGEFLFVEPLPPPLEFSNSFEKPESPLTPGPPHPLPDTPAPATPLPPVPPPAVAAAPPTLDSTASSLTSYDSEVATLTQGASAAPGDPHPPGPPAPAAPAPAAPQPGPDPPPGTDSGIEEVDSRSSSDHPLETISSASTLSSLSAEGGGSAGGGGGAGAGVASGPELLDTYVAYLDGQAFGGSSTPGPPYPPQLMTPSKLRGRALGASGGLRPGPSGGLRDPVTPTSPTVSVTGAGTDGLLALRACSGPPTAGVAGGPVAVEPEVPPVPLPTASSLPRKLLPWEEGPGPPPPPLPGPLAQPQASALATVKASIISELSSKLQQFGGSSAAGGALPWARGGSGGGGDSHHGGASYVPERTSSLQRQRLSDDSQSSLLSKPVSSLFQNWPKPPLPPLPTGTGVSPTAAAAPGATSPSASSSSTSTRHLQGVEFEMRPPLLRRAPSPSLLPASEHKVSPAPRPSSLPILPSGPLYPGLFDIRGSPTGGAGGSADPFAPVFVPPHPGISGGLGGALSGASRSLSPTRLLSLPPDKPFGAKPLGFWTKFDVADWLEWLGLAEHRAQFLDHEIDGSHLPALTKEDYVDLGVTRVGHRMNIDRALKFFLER
Sequence of UniProt P09619 (whole entry, looked up): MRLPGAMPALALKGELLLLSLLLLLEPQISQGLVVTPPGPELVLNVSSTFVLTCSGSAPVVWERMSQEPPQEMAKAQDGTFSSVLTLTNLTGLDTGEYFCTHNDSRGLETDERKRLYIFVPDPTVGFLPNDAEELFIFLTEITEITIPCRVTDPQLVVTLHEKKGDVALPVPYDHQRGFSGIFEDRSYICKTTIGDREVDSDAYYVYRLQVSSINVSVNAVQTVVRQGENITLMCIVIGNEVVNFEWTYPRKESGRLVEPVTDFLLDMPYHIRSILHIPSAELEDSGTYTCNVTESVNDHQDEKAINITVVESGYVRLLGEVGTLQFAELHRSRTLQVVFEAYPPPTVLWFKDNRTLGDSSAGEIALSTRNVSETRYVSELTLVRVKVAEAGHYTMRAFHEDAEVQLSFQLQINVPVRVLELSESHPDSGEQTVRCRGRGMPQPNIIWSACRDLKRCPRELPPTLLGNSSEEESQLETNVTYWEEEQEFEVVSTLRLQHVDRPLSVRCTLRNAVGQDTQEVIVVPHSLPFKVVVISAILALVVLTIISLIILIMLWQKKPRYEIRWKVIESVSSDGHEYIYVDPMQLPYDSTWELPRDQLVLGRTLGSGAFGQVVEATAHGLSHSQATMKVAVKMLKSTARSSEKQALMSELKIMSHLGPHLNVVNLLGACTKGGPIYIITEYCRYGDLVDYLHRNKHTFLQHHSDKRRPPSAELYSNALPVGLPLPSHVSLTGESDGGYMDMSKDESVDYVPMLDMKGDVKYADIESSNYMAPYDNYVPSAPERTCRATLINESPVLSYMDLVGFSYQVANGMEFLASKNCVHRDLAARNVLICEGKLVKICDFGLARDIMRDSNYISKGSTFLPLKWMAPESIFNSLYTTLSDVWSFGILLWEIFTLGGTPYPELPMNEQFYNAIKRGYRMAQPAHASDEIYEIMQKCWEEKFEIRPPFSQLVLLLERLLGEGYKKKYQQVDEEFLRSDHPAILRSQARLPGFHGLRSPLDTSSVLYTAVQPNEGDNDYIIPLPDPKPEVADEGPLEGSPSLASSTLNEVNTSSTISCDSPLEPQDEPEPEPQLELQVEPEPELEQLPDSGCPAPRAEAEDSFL
Sequence of UniProt Q06911 (whole entry, looked up): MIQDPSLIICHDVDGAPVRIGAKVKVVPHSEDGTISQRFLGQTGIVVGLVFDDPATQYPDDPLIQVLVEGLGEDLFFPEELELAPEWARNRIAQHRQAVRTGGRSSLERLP
Sequence of UniProt P02550 (whole entry, looked up): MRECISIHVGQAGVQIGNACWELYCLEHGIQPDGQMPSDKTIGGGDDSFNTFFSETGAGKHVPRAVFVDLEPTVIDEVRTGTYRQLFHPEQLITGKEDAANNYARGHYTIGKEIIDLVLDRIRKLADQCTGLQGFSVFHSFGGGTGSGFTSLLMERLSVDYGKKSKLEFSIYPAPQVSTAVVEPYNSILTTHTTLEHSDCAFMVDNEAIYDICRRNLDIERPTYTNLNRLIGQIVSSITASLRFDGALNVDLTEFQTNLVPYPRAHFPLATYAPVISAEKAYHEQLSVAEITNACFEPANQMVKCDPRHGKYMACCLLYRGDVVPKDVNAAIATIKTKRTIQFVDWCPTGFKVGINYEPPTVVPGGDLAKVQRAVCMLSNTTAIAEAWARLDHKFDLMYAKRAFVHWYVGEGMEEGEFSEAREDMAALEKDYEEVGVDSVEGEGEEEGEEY
Sequence of UniProt Q9Y657 (whole entry, looked up): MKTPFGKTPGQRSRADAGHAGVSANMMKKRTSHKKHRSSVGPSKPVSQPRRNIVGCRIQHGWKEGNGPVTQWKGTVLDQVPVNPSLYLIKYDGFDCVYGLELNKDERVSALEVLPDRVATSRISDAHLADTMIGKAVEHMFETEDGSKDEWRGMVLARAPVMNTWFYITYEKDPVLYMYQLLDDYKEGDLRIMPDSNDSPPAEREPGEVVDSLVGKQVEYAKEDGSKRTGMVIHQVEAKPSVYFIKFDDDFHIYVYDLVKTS

O=C(O)COc1ccc(Cl)cc1  Kd (PIN8 (Arabidopsis thaliana, UniProt Q9LFP6); cell-free assay): 304000 nM
N=C(N)NCCC[C@H](NC(=O)[C@H](Cc1ccccc1)NC(=O)[C@@H]1CCCN1C(=O)[C@H](CO)NC(=O)[C@H](Cc1ccccc1)NC(=O)CNC(=O)[C@@H]1CCCN1C(=O)[C@@H]1CCCN1C(=O)[C@@H](N)CCCNC(=N)N)C(=O)N[C@@H](CCCCNS(=O)(=O)c1ccc(C2=c3cc4c5c(c3Oc3c2cc2c6c3CCCN6CCC2)CCC[N+]=5CCC4)c(S(=O)(=O)[O-])c1)C(=O)O  Kd (Oligopeptide-binding protein OppA (oppA, Lactococcus lactis subsp. lactis, UniProt Q07741); binding, fluorescence anisotropy; pH 6.5, 18 °C, together with: dye-labelled peptide): 13000 ± 500 nM
CC[C@H](C)[C@H](NC(=O)[C@H](CC(C)C)NC(=O)[C@H](CCC(=O)O)NC(=O)[C@@H]1CCCN1C(=O)[C@@H](N)Cc1ccccc1)C(=O)N[C@@H](CCC(N)=O)C(=O)N[C@@H](CC(=O)O)C(=O)N[C@H](C(=O)N[C@@H](CO)C(=O)N[C@H](C(=O)N[C@@H](CO)C(=O)N[C@@H](Cc1ccccc1)C(=O)N[C@@H](CO)C(=O)N[C@H](C(=O)N[C@H](C(=O)N[C@@H](CCCNC(=N)N)C(=O)O)[C@@H](C)O)[C@@H](C)O)[C@@H](C)O)[C@@H](C)O  Kd (SH3 and multiple ankyrin repeat domains protein 1, PDZ domain (SHANK1, Homo sapiens, UniProt Q9Y566); binding, fluorescence polarization; together with: FITC-labelled peptide): 4300 ± 200 nM
CC[C@H](C)[C@H](NC(=O)[C@H](CCC(=O)O)NC(=O)[C@H](CS)NC(=O)[C@@H](NC(=O)CNC(=O)[C@H](CO)NC(=O)[C@H](CC(C)C)NC(=O)[C@H](CO)NC(=O)[C@H](CCC(=O)O)NC(=O)[C@H](CCCNC(=N)N)NC(=O)[C@@H](NC(=O)[C@H](C)NC(=O)[C@H](CS)NC(=O)[C@H](CCCNC(=N)N)NC(=O)CNC(=O)[C@@H](NC(=O)[C@H](CCCNC(=N)N)NC(=O)[C@H](CS)NC(=O)[C@H](Cc1ccc(O)cc1)NC(=O)[C@H](CS)NC(=O)[C@@H](NC(=O)[C@H](C)N)[C@@H](C)O)[C@@H](C)O)[C@@H](C)O)C(C)C)C(=O)N[C@@H](CO)C(=O)NCC(=O)N[C@@H](CCCNC(=N)N)C(=O)N[C@@H](CC(C)C)C(=O)N[C@@H](Cc1ccc(O)cc1)C(=O)N[C@@H](CCCNC(=N)N)C(=O)N[C@@H](CC(C)C)C(=O)N[C@@H](CS)C(=O)N[C@@H](CS)C(=O)N[C@@H](CCCNC(=N)N)C(=O)O  Kd (Zn(II); metal binding, Zinpyr-4 competition titration; pH 7.4, 2:1 binding model, anaerobic): 0.247 ± 0.023 nM
CC[C@H](C)[C@H](NC(=O)[C@H](Cc1c[nH]cn1)NC(=O)[C@H](CCCCNC(=O)[C@@H](NC(=O)[C@H](CCCCN)NC(=O)[C@H](CCCCNC(=O)[C@H](CC(C)C)NC(=O)[C@@H]1CCCN1C(=O)[C@H](CCCCN)NC(=O)CSCCCCCCO[C@@H]1O[C@H](CO)[C@@H](O[C@@H]2O[C@@H](C)[C@@H](O)[C@@H](O)[C@@H]2O)[C@H](O[C@@H]2O[C@H](CO)[C@H](O)[C@H](O)[C@H]2O)[C@H]1NC(C)=O)NC(=O)[C@H](CC(C)C)NC(=O)[C@@H]1CCCN1C(=O)[C@H](CCCCN)NC(=O)CSCCCCCCO[C@@H]1O[C@H](CO)[C@@H](O[C@@H]2O[C@@H](C)[C@@H](O)[C@@H](O)[C@@H]2O)[C@H](O[C@@H]2O[C@H](CO)[C@H](O)[C@H](O)[C@H]2O)[C@H]1NC(C)=O)[C@@H](C)CC)NC(=O)[C@@H](NC(=O)[C@H](CCCCN)NC(=O)[C@H](CCCCNC(=O)[C@H](CC(C)C)NC(=O)[C@@H]1CCCN1C(=O)[C@H](CCCCN)NC(=O)CSCCCCCCO[C@@H]1O[C@H](CO)[C@@H](O[C@@H]2O[C@@H](C)[C@@H](O)[C@@H](O)[C@@H]2O)[C@H](O[C@@H]2O[C@H](CO)[C@H](O)[C@H](O)[C@H]2O)[C@H]1NC(C)=O)NC(=O)[C@H](CC(C)C)NC(=O)[C@@H]1CCCN1C(=O)[C@H](CCCCN)NC(=O)CSCCCCCCO[C@@H]1O[C@H](CO)[C@@H](O[C@@H]2O[C@@H](C)[C@@H](O)[C@@H](O)[C@@H]2O)[C@H](O[C@@H]2O[C@H](CO)[C@H](O)[C@H](O)[C@H]2O)[C@H]1NC(C)=O)[C@@H](C)CC)C(N)=O  Kd (Fucose-binding lectin PA-IIL (lecB, Pseudomonas aeruginosa, UniProt Q9HYN5); binding, ITC; pH 7.5): 39 nM
CC[C@H](C)[C@H](NC(=O)[C@H](CCC(N)=O)NC(=O)[C@@H](NC(=O)[C@H](CCCCN)NC(=O)CNC(=O)CNC(=O)CNC(=O)[C@@H]1CCCN1C(=O)[C@H](CCC(N)=O)NC(=O)[C@H](Cc1c[nH]cn1)NC(=O)[C@H](CCCCN)NC(=O)CNC(=O)CNC(=O)CNC(=O)[C@@H](N)CSC1CC(=O)N(c2ccc3c(c2)C(=O)OC32c3ccc(N(C)C)cc3Oc3cc(N(C)C)ccc32)C1=O)C(C)C)C(=O)N[C@H](C(=O)N[C@@H](CC(N)=O)C(=O)N[C@@H](CCCCN)C(=O)N[C@@H](CCCCN)C(=O)N[C@@H](CC(C)C)C(=O)N[C@@H](CC(=O)O)C(=O)N[C@@H](CC(C)C)C(=O)O)[C@@H](C)CC (stereo partly shown)  Kd (Tubulin alpha-1A/beta chain (Sus scrofa, UniProt P02550+P02554); binding, equilibrium dialysis; pH 6.9, 25 °C): 3400 nM
C=C(c1ccccc1)[C@@H](N)P(=O)(O)O  Kd (PAL1 (Petroselinum crispum, UniProt P24481, Y110F); ITC; pH 8.0, 30 °C): 170 nM
C=CC[C@H]1OC(=O)CCNC(=O)[C@H](C)N(C)C(=O)[C@H]([C@@H](C)CC)N(C)C(=O)[C@H]([C@@H](C)CC)NC(=O)[C@@H]2[C@@H](C)CCN2C1=O  Kd (Platelet-derived growth factor receptor beta, extracellular domain (PDGFRB, Homo sapiens, UniProt P09619); binding, microscale thermophoresis): ~5430 nM
CC[C@H](C)[C@H](NC(=O)[C@H](CCCNC(=N)N)NC(=O)[C@H](CC(N)=O)NC(=O)[C@H](CCC(=O)O)NC(=O)[C@@H]1CCCN1C(=O)[C@H](CC(=O)O)NC(=O)[C@H](CC(N)=O)NC(=O)[C@H](CC(=O)O)NC(=O)[C@H](CC(=O)O)NC(=O)[C@@H](N)CO)C(=O)N[C@@H](C)C(=O)N[C@@H](CCCCN)C(=O)N[C@]1(C)CCCCCCC=CCCC[C@@](C)(C(=O)N[C@@H](C)C(=O)N[C@@H](CC(N)=O)C(=O)N[C@@H](CC(C)C)C(=O)N[C@@H](CO)C(=O)O)NC(=O)[C@H]([C@@H](C)CC)NC(=O)[C@H](CCC(=O)O)NC(=O)[C@H](CCC(=O)O)NC(=O)[C@H](CC(C)C)NC(=O)[C@H](CC(C)C)NC(=O)[C@H](CCSC)NC1=O  Kd (Death domain-associated protein 6, residues 55-144 (Homo sapiens, UniProt Q9UER7); isothermal titration calorimetry; pH 7.5, 25 °C): 70 nM
O=C(O)CN(CC(=O)O)CP(=O)(O)O  Kd (Zn2+; binding, ITC; pH 7.0, 25 °C): 56 ± 15 nM
CC[C@H](C)[C@@H]1NC(=O)[C@@H]2CCCN2C(=O)[C@@H](NC(=O)[C@H](C)NC(=O)[C@H](CCSC)NC(C)=O)CSCc2cc3cc(c2)CSC[C@@H](C(=O)N[C@@H](Cc2ccc(O)cc2)C(=O)NCC(=O)N[C@@H](CO)C(=O)NCC(=O)N[C@@H](CO)C(=O)NCC(=O)N[C@@H](CO)C(=O)N[C@@H](CC(=O)O)C(=O)N[C@@H](Cc2ccc(O)cc2)C(=O)N[C@@H](CCCCN)C(=O)N[C@@H](CC(=O)O)C(=O)N[C@@H](CC(=O)O)C(=O)N[C@@H](CC(=O)O)C(=O)N[C@@H](CC(=O)O)C(=O)N[C@@H](CCCCN)C(N)=O)NC(=O)[C@H](Cc2ccc(O)cc2)NC(=O)[C@H](CCCNC(=N)N)NC(=O)[C@H](CC(C)C)NC(=O)[C@H]([C@@H](C)O)NC(=O)[C@H](CC(N)=O)NC(=O)[C@H]([C@@H](C)O)NC(=O)[C@H](CSC3)NC(=O)CNC1=O  Kd (Fibroblast growth factor receptor 1 (FGFR1, Homo sapiens, UniProt P11362); binding, BLI): > 10000 nM
CN=C(NC)NCCC[C@H](NC(=O)[C@H](C)NC(=O)[C@@H](NC(=O)[C@H](CCC(N)=O)NC(=O)[C@H](CCCC[N+](C)(C)C)NC(=O)[C@@H](NC(=O)[C@H](CCCNC(=N)N)NC(=O)[C@H](C)N)[C@@H](C)O)[C@@H](C)O)C(=O)N[C@@H](CCCCN)C(=O)N[C@@H](CO)C(=O)O  Kd (Spindlin-1 (SPIN1, Homo sapiens, UniProt Q9Y657); binding, ITC; pH 7.5): 66 nM
CC[C@H](C)[C@H](NC(=O)CNC(C)=O)C(=O)N[C@@H](CCCNC(=N)N)C(=O)N[C@@H](CCC(=O)O)C(=O)N[C@@H](C)C(=O)N[C@H](C(=O)N[C@@H](CC(C)C)C(=O)N[C@@H](CCCNC(=N)N)C(=O)N[C@@H](C)C(=O)N[C@@H](Cc1c[nH]c2ccccc12)C(=O)N[C@@H](CCC(=O)O)C(=O)N[C@@H](CCCNC(=N)N)C(=O)N[C@@H](CCCNC(=N)N)C(=O)N[C@@H](Cc1ccc(O)cc1)C(=O)NCC(=O)N[C@@H](Cc1ccccc1)C(=O)N1CCC[C@H]1C(=O)N[C@@H](CCCNC(=N)N)C(=O)N1CCC[C@H]1C(=O)N[C@@H](CC(C)C)C(=O)N[C@@H](CCCNC(=N)N)C(=O)N[C@@H](CO)C(=O)N[C@@H](CCC(=O)O)C(N)=O)[C@@H](C)O  Kd (Antirepressor protein CarS (carS, Myxococcus xanthus, UniProt Q06911); isothermal titration calorimetry; pH 7.5, 25 °C): 150 ± 18 nM
CC(C)C[C@H](NC(=O)[C@H](CCCNC(=N)N)NC(=O)[C@H](CCC(=O)O)NC(=O)[C@H](CCCCN)NC(=O)[C@H](CCCNC(=N)N)NC(=O)[C@H](CCCCN)NC(=O)[C@]1(C)CCCC=CCCC[C@](C)(NC(=O)[C@H](CC(C)C)NC(=O)[C@H](CO)NC(=O)[C@H](C)NC(=O)[C@H](CCCCN)NC(=O)[C@H](CCCNC(=N)N)NC(=O)[C@H](C)NC(=O)[C@H](CCC(N)=O)NC(=O)[C@@H]2CCCN2C(=O)[C@@H](NC(=O)[C@H](CO)NC(=O)c2ccc3c(c2)C(=O)OC32c3ccc(N(C)C)cc3Oc3cc(N(C)C)ccc32)C(C)C)C(=O)N[C@@H](CCCNC(=N)N)C(=O)N[C@@H](Cc2ccccc2)C(=O)N[C@@H](CC(C)C)C(=O)N1)C(=O)O  Kd (COI1, with JA-Ile (Arabidopsis thaliana, UniProt O04197); COI1-JAZ binding, fluorescence anisotropy; pH 7.8, 25 °C, together with: IP5 100 nM; lower = stronger binding): 29 ± 11 nM
CCOC(=O)Nc1ccc2c(c1)CN1C(=S)N(c3ccc(C#N)c(C(F)(F)F)c3)C(=O)C1C2 (stereo not shown)  Kd (Androgen receptor (AR, Homo sapiens, UniProt P10275); binding, SPR): 558 nM
CCC(C(=O)OC)C1N=C(c2ccc(Cl)cc2)c2cc(OC)ccc2-n2c(C)nnc21 (stereo not shown)  Kd (Bromodomain-containing protein 2, tandem bromodomains (BRD2, Homo sapiens, UniProt P25440); binding, isothermal titration calorimetry; 30 °C, tandem bromodomains, no binding): > 10000 nM
